Results from different studies.
Parts stem from different laboratories: compare values within a part only. Positions count from the first letter of the parent shown.

Sample 1
Target: RING finger protein unkempt homolog, zinc fingers 1-6, GST-SBP tag (UNK, Homo sapiens, UniProt Q9C0B0, residues 30-357)
UniProt Q9C0B0, sequence (30-357, looked up): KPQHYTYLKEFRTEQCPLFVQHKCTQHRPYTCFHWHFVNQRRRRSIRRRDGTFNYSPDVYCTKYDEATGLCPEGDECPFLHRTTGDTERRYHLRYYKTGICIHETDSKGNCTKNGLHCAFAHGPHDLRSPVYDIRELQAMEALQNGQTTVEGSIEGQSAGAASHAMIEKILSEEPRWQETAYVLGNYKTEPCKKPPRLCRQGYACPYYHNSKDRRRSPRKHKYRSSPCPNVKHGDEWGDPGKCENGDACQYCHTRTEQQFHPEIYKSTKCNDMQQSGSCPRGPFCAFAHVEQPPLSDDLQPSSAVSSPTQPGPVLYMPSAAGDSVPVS
Method: RNA Bind-n-Seq
Molecule type: RNA
Sample: in vitro
Concentration: not given
Notes: RNA with constant flanks, human-mouse chimeric sites, ends assumed
Baseline: input RNA pool
Reading: higher = stronger binding
All sequences stand within: GGGAGUUCUACAGUCCGACGAUC … CAACAGAGGAUUGAGCAUCA
Oligonucleotide	bound/input enrichment [ratio]
CACGUGUCUGCAGUACUUGAUGUGGAUUACUCUCCCACUGGGAAGGAAUUUGUGUCUGCCAGCUUUGAUAAGUCUAUUAGAAUCUUUCCUGUAGACAAGAGCCGAAGCAGGGAAGUGUAU	0.291
UCCCAAAUCCAGCAGCUAGAAGGAGCCUUGAGACAAAGCCUGGAAAUACAGGGAAGGCGAUAACAUUGUACAUUGGUUUACAUUUUUCUCCUUGAAUGAUUUUUCUAGAGGUCAUAGUGC	0.36
AGCACAACACCAGCUAAGCUAAGAAAUCCUUGUACAAGUGAACAAAACUGCACCAGCCCAUUUAGCUACAAAAAUGUGCUCAGUCUUACUGACAGAGGAGAGUUUUUCAAUGAACUUGUU	1.9
GGUGGGGGGUUGUCAUUCGUUUGAGCUGCUGAUUUUCUUAUGAAUCAUUCAAAACUCUCGUGUAGGGUUGACAAUGUGGGGGGGUGGGGGAUCCAGCUUAUUCUUUUAUUUUCAAGUCCA	0.985
CGCUGGCCCAAGCUGAUGGACUCUGAUGGCCUCCAUCUCUCAGGCACGUGUGCCUUCUCUUAGUUAUUUCUGGGUUGAUGUUAUGAAUCUCAGUACUGUGGUUUGAAAGCACCAGCUUUG	1.69
GAAUCCUACUCAGGCGGAUUUUGCAACACCAAGCUCACAGCAGCAGCUCCAUAGUCACAGUAGGGUAGUUUUGGGGCUCUGUGGCCAUGGUUUUACUCACAUGCAGGUUUGGAAAAUGUA	1.02
CUUAAUGUUAAUAUUUUUGAAUAAAUGAAGCUAAAAUGUCUGCUUUUGGUACUACAUGCAUUAAUAAAAGGUUAAGUUUUGUUUUCCCUCCACUGAAUAUUUAACAUCUCAGAAAAAAAC	0.601
UCUGGUCACACUCGUGUGUAUGGUGUUUGCUUUGUUGAUACUUCACUGGGCAAGUUUUUCAUCGGCCAGUUUUCGGAUGACCGCCACUGUUCCAGAUUUAGGACGCUAGUGGCUCACUAU	0.265
UUACCCGAGAACGAGGAUGAGCUGGAGAGCACCAACAGGCGCUACACCAAGAGGGACUGUAGCACUUUUCUCAGAACUAGUGAGACGGGCAUCGUGGACCAGGUCAUGGUCACUCUCAAC	0.224
CCAAUUGUGGAGCAGUACUUGAAGACAAAGAAAAAUUCUAGUCAUUUAAUCAUCAAGUACAUUAGCUGCCGCCUGCUGACAUUUGUGAUUAUACUGUUAGCGUGUAUCUACCUGGGCUAU	0.403
UCAUUUUUCUCUUUUCUGAUCGUCAGGUAGGAAAAGCCUAAAGAUUAGGUUGUAAGAAAAACAGAAGCCAUGUUUCGAAGACCUGUGUUACAGGUAUUUCGUCAGUUUGUAAGACAUGAG	1.41

Sample 2
Target: ABI1, truncated, D143A, DHFR fusion (Arabidopsis thaliana)
Method: DHFR PCA, deep sequencing
Sample: yeast
Notes: methotrexate growth selection, single substitutions
Together with: (+)-ABA 200 µM
Baseline: wild-type fitted maximum
Reading: higher = stronger binding
Starting sequence: PYL1, truncated, DHFR fusion (Arabidopsis thaliana); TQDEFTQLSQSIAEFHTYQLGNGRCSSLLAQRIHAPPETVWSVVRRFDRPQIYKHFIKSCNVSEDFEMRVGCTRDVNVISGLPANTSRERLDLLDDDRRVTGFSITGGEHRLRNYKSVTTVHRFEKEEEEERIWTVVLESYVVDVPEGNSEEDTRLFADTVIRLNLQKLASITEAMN
Substitution	relative binding score
P146M	36.8%
H16S	-2.81%
R155A	74.7%
Q7W	104%
E152Q	97.1%
D153E	100%
V100H	71.5%
Q19S	102%
Q167W	70.4%
I105C	86.1%
N22V	99%
V44Y	-3%
V70A	96.4%
K58F	80.2%
D95L	85.7%
R155F	32.1%
E129Y	107%
N85S	105%
S63Q	99.5%
S87V	53%
E64Q	103%
I52V	106%
S140N	-7.74%
R74Q	5.88%
V118T	103%

Sample 3
Target: TAR DNA-binding protein 43, full length, His tag (TARDBP, Homo sapiens, UniProt Q13148, residues 1-414)
Method: RNA Bind-n-Seq
Molecule type: RNA
Sample: in vitro
Concentration: 20 nM
Notes: 6-mer, flanks averaged, single round
Together with: 150 mM KCl
Baseline: input library
Reading: higher = stronger binding
Oligonucleotide	6-mer enrichment (R)
UAGUUC	0.557
UUAUCC	0.562
CUCGUC	0.586
CAAUGU	0.671
UUGAGG	1.52
GCUAAC	0.671
CGAGCG	1.52
UCAUGU	0.641
GUCGAA	0.867
UCGUUG	0.686
GAAUGC	1.04
UUUGUG	0.982
ACGGUU	0.705
CUCCAA	0.61
AUGACA	0.702
UCGAUA	0.577
CGUACA	0.637
AUGUUC	0.603

Sample 4
Target: CCNF, cyclin fold, Cln2 fusion (human)
Method: yeast growth competition, sequencing
Sample: yeast
Notes: strong parent motif
Baseline: not given
Reading: higher = stronger binding
Starting sequence: CDKN1A docking peptide (human); SKACRRLFGPVDS
Substitution	normalised enrichment score
F8S	0.66
D12W	7.2
A3G	4.6
D12I	7.38
D12N	7.26
K2F	7.15
P10L	6.18
R6P	3.13
R6Y	2.86
C4P	3.59
D12K	7.08
L7R	0.162
L7A	0.366
V11Y	7.78
G9M	8.05
S1A	7.82
V11S	7.52
K2C	6.4
D12E	7.18
R6G	1.92
L7Y	0.939
R5F	0.452
G9D	7.44
R6H	2.3
P10N	7.08

Sample 5
Target: Histone acetyltransferase KAT6A, winged helix 1, GST fusion (KAT6A, Homo sapiens, UniProt Q92794, residues 1-85)
Method: protein binding microarray
Molecule type: double-stranded DNA, one strand shown
Sample: in vitro
Concentration: not given
Notes: 8-mer, flanks averaged, mean of 2 arrays, mostly near background
Baseline: not given
Reading: higher = stronger binding
Residues (chain): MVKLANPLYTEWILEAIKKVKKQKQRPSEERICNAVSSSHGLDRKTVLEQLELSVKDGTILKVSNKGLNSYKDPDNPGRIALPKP
Oligonucleotide	E-score
GAAGGATC	-0.147
GAGCACGC	0.0686
GCCTCTTA	-0.151
AAACATAC	-0.0599
ATACGCAT	0.0956
GGCAAACA	0.0481
GTCTCCCA	-0.157
TAGCGGAA	0.174
AGAATCAG	-0.118
GATAAGGC	0.0168
ACCGCATG	0.197
AACTCTTG	-0.392
TACAAGCA	-0.0734
AATCTATC	-0.149
AACGCTAG	0.0336
ATTAATCA	-0.208
CGTAAACA	0.111
AACCTACA	-0.138
CTCCGATC	0.0942
GAAACTAA	-0.126
CATCCTCC	-0.0906
CGGACACC	0.176
GATTGACC	0.0199
TCTAGCAA	-0.131
AATACTTA	-0.0672

For quick reference, copied from above (sample 2):
Substitution	relative binding score
H16S	-2.81%
R155A	74.7%
Q7W	104%
E152Q	97.1%
D153E	100%
V100H	71.5%
Q19S	102%
Q167W	70.4%
I105C	86.1%
N22V	99%
